Measured values of several laboratories.
Each numbered part is a random draw from the data of one study; scales do not carry over between parts.
Chain of UniProt Q02763 (whole entry, looked up): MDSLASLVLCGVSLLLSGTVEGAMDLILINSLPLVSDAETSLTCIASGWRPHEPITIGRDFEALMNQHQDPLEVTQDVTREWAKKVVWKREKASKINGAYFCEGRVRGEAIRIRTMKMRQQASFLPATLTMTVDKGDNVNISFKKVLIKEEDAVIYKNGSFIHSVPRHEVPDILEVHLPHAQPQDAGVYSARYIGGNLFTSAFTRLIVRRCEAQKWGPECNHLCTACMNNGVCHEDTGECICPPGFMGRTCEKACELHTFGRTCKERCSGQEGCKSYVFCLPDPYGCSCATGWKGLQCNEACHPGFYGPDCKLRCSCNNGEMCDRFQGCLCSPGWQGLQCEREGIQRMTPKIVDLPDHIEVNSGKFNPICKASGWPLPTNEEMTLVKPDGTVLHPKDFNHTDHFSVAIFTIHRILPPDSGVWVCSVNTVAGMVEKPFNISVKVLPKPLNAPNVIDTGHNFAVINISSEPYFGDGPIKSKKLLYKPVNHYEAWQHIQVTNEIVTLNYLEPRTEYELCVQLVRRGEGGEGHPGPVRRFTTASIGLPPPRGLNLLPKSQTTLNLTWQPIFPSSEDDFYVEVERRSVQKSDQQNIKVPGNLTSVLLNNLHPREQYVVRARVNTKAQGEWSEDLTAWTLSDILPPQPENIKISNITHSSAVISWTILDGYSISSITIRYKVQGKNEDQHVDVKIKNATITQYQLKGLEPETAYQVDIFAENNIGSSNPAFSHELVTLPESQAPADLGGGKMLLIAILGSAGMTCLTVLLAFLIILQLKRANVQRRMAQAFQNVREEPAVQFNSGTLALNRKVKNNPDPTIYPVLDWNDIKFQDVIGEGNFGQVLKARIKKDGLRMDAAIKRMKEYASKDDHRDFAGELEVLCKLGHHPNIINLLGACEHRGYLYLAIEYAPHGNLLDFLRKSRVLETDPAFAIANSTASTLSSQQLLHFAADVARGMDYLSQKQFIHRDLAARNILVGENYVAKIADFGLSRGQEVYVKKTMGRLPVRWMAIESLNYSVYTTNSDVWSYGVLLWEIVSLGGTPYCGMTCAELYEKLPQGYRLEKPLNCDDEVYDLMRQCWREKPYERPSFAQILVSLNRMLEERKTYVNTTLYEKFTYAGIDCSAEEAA
Chain of UniProt P36507 (whole entry, looked up): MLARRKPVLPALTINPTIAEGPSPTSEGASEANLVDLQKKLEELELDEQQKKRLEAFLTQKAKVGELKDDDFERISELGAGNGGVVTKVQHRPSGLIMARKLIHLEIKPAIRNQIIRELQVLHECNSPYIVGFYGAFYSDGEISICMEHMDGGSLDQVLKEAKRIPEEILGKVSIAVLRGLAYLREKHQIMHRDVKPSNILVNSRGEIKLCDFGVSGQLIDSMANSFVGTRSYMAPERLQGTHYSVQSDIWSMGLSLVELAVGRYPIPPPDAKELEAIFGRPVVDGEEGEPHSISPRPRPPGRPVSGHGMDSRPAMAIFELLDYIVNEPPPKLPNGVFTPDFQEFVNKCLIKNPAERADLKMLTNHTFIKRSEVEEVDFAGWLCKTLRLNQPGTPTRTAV
Chain of UniProt Q9HC98 (whole entry, looked up): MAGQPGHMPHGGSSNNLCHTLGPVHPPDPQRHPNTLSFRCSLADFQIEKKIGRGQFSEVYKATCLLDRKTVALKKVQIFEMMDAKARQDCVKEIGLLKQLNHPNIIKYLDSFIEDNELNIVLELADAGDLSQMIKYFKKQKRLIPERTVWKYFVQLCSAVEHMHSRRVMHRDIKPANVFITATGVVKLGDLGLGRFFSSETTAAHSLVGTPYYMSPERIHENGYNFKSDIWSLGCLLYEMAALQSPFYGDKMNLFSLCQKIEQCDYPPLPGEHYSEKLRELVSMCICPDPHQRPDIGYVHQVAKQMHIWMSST
Chain of UniProt Q96PY6 (whole entry, looked up): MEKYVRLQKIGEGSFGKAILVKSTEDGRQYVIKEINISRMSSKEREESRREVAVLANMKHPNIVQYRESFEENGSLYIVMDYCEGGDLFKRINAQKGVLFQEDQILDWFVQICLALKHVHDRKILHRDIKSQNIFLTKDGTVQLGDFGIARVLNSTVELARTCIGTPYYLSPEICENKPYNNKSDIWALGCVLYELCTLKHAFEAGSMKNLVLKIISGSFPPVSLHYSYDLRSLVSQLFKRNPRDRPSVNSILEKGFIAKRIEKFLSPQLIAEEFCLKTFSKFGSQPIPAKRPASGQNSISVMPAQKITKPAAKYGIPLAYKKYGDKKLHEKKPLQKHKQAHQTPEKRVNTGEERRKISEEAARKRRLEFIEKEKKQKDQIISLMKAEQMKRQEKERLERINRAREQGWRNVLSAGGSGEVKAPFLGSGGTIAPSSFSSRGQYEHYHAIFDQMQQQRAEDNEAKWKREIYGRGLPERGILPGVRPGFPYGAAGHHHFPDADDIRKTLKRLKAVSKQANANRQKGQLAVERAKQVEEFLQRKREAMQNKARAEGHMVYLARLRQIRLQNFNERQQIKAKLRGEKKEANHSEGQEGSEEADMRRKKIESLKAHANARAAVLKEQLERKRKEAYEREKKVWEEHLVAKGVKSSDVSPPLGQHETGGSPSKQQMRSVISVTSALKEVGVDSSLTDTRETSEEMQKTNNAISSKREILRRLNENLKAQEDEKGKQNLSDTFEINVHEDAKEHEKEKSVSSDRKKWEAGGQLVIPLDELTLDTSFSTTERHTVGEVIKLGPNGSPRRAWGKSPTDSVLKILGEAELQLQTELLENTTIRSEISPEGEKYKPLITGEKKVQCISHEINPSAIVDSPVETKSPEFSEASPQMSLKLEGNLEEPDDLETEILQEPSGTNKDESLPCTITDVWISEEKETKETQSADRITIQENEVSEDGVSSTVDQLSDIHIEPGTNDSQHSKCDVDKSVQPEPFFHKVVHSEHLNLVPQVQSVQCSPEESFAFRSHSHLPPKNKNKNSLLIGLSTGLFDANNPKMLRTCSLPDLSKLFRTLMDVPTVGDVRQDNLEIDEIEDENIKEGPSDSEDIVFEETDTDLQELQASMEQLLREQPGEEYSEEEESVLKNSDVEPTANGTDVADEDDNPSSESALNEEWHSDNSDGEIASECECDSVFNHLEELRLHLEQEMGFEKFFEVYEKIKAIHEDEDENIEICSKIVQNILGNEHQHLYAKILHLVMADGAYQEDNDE
Chain of UniProt Q8WTQ7 (whole entry, looked up): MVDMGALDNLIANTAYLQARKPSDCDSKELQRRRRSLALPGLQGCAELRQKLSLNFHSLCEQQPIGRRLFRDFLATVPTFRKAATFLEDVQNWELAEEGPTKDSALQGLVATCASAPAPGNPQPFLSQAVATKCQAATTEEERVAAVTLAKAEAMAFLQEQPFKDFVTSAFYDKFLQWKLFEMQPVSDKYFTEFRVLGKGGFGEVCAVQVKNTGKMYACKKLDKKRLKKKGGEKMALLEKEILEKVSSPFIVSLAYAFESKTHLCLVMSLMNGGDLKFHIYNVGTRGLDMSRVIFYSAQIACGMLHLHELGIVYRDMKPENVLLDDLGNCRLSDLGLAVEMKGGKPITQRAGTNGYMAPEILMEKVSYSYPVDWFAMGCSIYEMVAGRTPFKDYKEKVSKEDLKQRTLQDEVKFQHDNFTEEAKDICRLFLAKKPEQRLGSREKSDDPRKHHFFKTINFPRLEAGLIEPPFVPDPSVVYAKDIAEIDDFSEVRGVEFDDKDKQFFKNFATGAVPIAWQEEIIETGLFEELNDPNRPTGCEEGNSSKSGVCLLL
Chain of UniProt Q9Y4K4 (whole entry, looked up): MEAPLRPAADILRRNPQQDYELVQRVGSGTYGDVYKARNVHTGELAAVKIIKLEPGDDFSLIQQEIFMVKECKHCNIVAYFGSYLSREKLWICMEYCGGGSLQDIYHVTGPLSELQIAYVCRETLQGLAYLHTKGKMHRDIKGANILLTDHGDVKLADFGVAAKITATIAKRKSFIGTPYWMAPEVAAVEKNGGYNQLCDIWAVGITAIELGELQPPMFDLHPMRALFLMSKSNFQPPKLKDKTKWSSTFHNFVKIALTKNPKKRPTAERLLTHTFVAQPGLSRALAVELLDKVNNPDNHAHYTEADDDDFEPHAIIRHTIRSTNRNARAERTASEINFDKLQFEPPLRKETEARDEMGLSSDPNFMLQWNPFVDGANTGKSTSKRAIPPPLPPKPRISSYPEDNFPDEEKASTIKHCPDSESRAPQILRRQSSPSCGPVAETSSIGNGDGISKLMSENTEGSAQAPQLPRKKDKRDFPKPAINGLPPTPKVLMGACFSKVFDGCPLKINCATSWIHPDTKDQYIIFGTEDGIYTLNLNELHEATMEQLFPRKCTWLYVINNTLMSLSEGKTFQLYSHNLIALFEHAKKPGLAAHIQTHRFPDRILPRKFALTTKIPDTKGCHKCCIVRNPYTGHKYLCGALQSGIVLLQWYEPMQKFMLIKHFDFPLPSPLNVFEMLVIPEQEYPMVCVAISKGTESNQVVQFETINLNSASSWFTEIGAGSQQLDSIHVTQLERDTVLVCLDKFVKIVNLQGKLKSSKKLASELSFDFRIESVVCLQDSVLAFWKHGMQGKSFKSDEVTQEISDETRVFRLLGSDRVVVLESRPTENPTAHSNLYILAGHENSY
Chain of UniProt P49841 (whole entry, looked up): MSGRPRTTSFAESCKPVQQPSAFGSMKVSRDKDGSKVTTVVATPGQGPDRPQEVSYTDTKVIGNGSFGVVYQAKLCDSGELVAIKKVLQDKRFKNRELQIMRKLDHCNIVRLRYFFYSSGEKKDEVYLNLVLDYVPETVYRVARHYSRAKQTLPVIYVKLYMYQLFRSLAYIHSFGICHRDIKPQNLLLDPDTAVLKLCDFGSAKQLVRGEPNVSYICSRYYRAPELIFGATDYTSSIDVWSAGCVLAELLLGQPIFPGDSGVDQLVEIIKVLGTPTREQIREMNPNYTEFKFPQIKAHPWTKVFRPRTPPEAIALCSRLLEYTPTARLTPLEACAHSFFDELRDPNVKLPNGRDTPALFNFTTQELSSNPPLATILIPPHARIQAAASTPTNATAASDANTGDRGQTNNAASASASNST

Block 1 — observed: cell-free assay; technique: competition with immobilised ligand; concentration: 1 µM; quantity: remaining binding
SMILES: COc1cc(-c2cn(C3CCc4ccccc4N(CC(F)(F)F)C3=O)nn2)ccc1-n1ccc(C)n1 (stereo not shown)
EPHB1 (Homo sapiens, UniProt P54762): 100%
EPHA5 (Homo sapiens, UniProt P54756): 100%
MAP3K14 (Homo sapiens, UniProt Q99558): 69%
MAP4K5 (Homo sapiens, UniProt Q9Y4K4): 100%
Tyrosine-protein kinase ABL1, non-phosphorylated (ABL1, Homo sapiens, UniProt P00519): 78%

Block 2 — medium: hydrocarbon/water; pH: 7.4; quantity: logD
CC(C)C[C@@H]1NC(=O)[C@H](Cc2ccc(O)cc2)N(C)C(=O)[C@H]2CCCN2C(=O)[C@H](CC(C)C)NC(=O)[C@H](C)N(C)C(=O)[C@@H](C)N(C)C1=O: -0.866
CCC[C@H]1C(=O)N[C@@H](CC2CCCCC2)C(=O)N(C)[C@@H](C)C(=O)N[C@@H](CC(C)C)C(=O)N(C)Cc2cn(nn2)CC(=O)N[C@@H](CC(C)C)C(=O)N(C)[C@@H](C)C(=O)N[C@@H](C2CCCCC2)C(=O)N2CCC[C@@H]2C(=O)N1C: 1.76
CCC[C@@H]1NC(=O)[C@H](C)N(C)C(=O)[C@H](CC(C)C)NC(=O)Cn2cc(nn2)CN(C)C(=O)[C@H](CC(C)C)NC(=O)[C@H](C)N(C)C(=O)[C@H](CC2CCCCC2)NC(=O)CN(CCC)C(=O)[C@H]2CCCN2C1=O: 0.706
CCC[C@@H]1NC(=O)[C@H](C)N(C)C(=O)[C@H](CC(C)C)NC(=O)Cn2cc(nn2)CN(C)C(=O)[C@H](CC(C)C)NC(=O)[C@H](C)N(C)C(=O)[C@H](CC2CCCCC2)NC(=O)[C@H](CCC)N(C)C(=O)[C@H]2CCCN2C1=O: 1.36
CC[C@@H]1C(=O)N(C)[C@@H](CC(C)C)C(=O)N[C@@H](CC(C)C)C(=O)N2CCC[C@@H]2C(=O)N(C)[C@@H](Cc2ccccc2)C(=O)N[C@@H](CC(C)C)C(=O)N1C: ≥ 3.45
CC(C)C[C@@H]1NC(=O)[C@H](Cc2ccccc2)N(C)C(=O)[C@H]2CCCN2C(=O)[C@H](CC(C)C)NC(=O)[C@H](CC(C)C)N(C)C(=O)[C@@H](C)N(C)C1=O: 3.25
CC(C)C[C@@H]1NC(=O)[C@H](C)N(C)C(=O)[C@H](CC2CCCCC2)NC(=O)CN(CC(C)C)C(=O)[C@H]2CCCN2C(=O)[C@H](CC(C)C)NC(=O)[C@H](C)N(C)C(=O)[C@H](CC(C)C)NC(=O)Cn2cc(nn2)CN(C)C1=O: 1.7

Block 3 — observed: enzyme activity; action: inhibitor; concentration: 0.5 µM; baseline: control; quantity: remaining activity
Compound: CN(C)C[C@H]1CCn2c(c(C3=C(c4cn(C)c5ccccc45)C(=O)NC3=O)c3ccccc32)C1
NEK6 (Homo sapiens, UniProt Q9HC98): 94.6%
JAK3 (Homo sapiens, UniProt P52333): 89.4%
NEK1 (Homo sapiens, UniProt Q96PY6): 105%
EPHA3 (Homo sapiens, UniProt P29320): 99.2%
TBK1 (Homo sapiens, UniProt Q9UHD2): 91.4%
TEK (Homo sapiens, UniProt Q02763): 98.4%
MAP2K2 (Homo sapiens, UniProt P36507): 101%
CSNK1G2 (Homo sapiens, UniProt P78368): 97%
RPS6KA2 (Homo sapiens, UniProt Q15349): 3.57%
GRK7 (Homo sapiens, UniProt Q8WTQ7): 40%
FRK (Homo sapiens, UniProt P42685): 103%
MST1R (Homo sapiens, UniProt Q04912): 98.3%
ARAF (Homo sapiens, UniProt P10398): 109%
GSK3B (Homo sapiens, UniProt P49841): 11.2%

Block 4 — cell line: mouse MPNST tumor cells; technique: high-content nuclear imaging; item: cell number; concentration: 10 µM; time: 12 h; notes: mean of 2 replicates; baseline: plate mean; direction: higher = more cells; quantity: nuclei count
NC(=O)c1ccc(Oc2ccc(C(N)=O)cc2)cc1: 0.207 z-score
COCCc1ccc(OCC(O)CNC(C)C)cc1 (stereo not shown): 1.09 z-score
O=C(NCc1cccc(O)c1)Nc1nc(-c2ccncc2)cs1: -1.63 z-score
Cc1onc(C(=O)N2CCN(C(c3ccc(Cl)cc3)c3ccc(Cl)cc3)CC2)c1[N+](=O)[O-]: -3.69 z-score
CNCCC(Oc1ccccc1OC)c1ccccc1 (stereo not shown): 4.04 z-score
